Assay results pooled from the literature.
A part holds a random share of what one study measured. Positions count from the first letter of the parent shown.

Sample 1
Target: Centromere-binding protein 1, full length, N-terminal tag (CBF1, Saccharomyces cerevisiae, UniProt P17106, residues 1-351)
Chain of UniProt P17106 (whole entry, looked up): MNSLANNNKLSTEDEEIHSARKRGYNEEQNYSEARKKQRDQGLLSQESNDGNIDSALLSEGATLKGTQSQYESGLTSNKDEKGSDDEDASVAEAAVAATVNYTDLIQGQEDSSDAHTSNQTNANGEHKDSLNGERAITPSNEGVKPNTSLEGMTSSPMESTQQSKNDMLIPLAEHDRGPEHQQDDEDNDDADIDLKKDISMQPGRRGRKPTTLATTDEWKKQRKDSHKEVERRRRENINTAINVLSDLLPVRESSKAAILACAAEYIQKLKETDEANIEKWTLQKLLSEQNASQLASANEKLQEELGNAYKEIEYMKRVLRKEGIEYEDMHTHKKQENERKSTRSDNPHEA
Method: protein-binding microarray
Form: double-stranded DNA, one strand shown
Matrix: in vitro
Tested at: 0.8 µM
Notes: whole 60-bp probe, no competitor
Direction: higher = stronger binding
Constant ends, left off below: … GTCTTGATTCGCTTGACGCTGCTG
Oligonucleotide | fluorescence intensity
CTAGTAAACAATTTGCTCGTGGTTTTTTTATCATTC | 617 a.u.
GAAATGGTAAAAATAGTGATGGCGAAATGGGTCTAG | 500 a.u.
GAAGGGTGTGGGTGTGGTGTGGGTGTGGTGGGTTAG | 556 a.u.
CTAAGTTCACGTGATATTATTAATAATATTTTATTC | 16300 a.u.
CTAAATATAGTGTGTCACGCATACAATAATTGATTC | 1310 a.u.
GAAACAAATAATCGTAACATCATCTCTGTCAAATAG | 509 a.u.
CTACTAGTATTCAATCACGTAAGGTGGAAGAGATTC | 582 a.u.
TGTACGAAGCTATGTCACCCCGGTATAGTAGTTAGG | 504 a.u.
CTACCCAATATAACACACATGAATCGTCGCACATTC | 568 a.u.
CTATAAAGCGTCCTTCTGCTGATGTGTTATTTGTTC | 532 a.u.

Sample 2
Target: Sal-like protein 4, full length isoform A (SALL4, Homo sapiens, UniProt Q9UJQ4, residues 1-1053)
Chain of UniProt Q9UJQ4 (whole entry, looked up): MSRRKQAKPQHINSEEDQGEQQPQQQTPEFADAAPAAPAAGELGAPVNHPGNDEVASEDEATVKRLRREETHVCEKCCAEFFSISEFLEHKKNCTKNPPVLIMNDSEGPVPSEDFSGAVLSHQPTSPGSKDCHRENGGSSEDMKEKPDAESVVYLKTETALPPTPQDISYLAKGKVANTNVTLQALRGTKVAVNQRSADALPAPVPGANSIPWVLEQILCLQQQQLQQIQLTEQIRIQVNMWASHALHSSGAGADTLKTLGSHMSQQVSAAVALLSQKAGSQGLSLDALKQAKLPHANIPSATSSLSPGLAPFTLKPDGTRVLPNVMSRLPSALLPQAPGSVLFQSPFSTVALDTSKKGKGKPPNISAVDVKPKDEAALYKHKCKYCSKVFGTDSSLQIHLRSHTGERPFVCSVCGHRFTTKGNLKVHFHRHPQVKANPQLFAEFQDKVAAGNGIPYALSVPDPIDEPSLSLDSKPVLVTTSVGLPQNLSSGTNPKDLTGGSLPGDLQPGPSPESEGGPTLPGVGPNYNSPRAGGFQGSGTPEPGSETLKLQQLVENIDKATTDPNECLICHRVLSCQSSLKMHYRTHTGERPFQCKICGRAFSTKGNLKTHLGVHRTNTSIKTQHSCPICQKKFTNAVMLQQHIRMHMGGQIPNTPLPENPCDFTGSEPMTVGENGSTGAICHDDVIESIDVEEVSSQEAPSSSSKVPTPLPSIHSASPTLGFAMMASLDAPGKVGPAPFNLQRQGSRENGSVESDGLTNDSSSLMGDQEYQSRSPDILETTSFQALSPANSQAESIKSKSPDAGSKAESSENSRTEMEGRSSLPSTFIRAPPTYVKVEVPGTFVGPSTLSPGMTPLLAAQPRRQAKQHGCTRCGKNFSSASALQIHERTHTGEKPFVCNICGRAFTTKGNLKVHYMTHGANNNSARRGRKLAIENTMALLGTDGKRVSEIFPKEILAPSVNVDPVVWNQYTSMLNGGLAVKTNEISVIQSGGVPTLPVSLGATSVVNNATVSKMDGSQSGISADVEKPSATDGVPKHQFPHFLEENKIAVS
Method: universal PBM
Form: double-stranded DNA, one strand shown
Matrix: in vitro
Tested at: 600 nM
Notes: 8-mer, flanks averaged, mean of replicates
Direction: higher = stronger binding
Oligonucleotide | E-score
CCCCGGCG | -0.382
AGATCTCC | -0.251
GAAGGACA | 0.0247
CAGTTAAC | -0.0965
CAACAAGG | 0.0428
ACGGTGTA | -0.00889
GTATATCA | 0.363
CAACACCA | -0.0317

Sample 3
Target: CCNA2, cyclin fold, Cln2 fusion (human)
Method: yeast growth competition, sequencing
Matrix: yeast
Notes: strong parent motif
Reference: not given
Direction: higher = stronger binding
Starting sequence: CUX1 docking peptide (human); SRIRRELFIEEIQ; partner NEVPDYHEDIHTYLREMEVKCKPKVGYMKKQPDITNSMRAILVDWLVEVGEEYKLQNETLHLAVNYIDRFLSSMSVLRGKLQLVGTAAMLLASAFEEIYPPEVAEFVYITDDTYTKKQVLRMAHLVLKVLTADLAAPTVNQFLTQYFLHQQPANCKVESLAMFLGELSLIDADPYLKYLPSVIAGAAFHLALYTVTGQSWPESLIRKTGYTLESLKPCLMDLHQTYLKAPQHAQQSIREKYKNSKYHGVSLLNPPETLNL
Variant | normalised enrichment score
E6A | 4.64
E10A | 3.7
R5A | -0.749

Further values, each from its own experiment
Molecule | target | assay | system | conditions | scale | quantity | value
PhoQ, residues 284 288 289 292 302 303 TVTVVA | PhoP, residues 12 14 15 18 19 TQAML (Escherichia coli, UniProt P23836) | Sort-seq, measured: YFP reporter | E. coli | PhoQ-PhoP variant library, together with: 10 µM Mg2+ | reference: high Mg2+ state, higher = stronger signaling | fold induction | 20.3
